Measured values collected from several papers.
Each numbered part is a random draw from the data of one study; scales do not carry over between parts.

Block 1
Target: Histone acetyltransferase KAT6A, both winged helices, GST fusion (KAT6A, Homo sapiens, UniProt Q92794, residues 1-181)
Method: protein binding microarray
Molecule type: double-stranded DNA, one strand shown
Sample: in vitro
Tested at: not given
Setting: 8-mer, flanks averaged, mean of 2 arrays, mostly near background
Baseline: not given
Direction: higher = stronger binding
Measurement: E-score
Target sequence (chain): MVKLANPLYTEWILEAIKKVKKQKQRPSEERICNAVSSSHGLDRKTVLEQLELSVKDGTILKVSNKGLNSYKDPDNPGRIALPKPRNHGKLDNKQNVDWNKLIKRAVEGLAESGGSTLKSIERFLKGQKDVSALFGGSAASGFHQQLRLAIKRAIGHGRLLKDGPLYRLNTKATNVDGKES
AAATCTTG: -0.0899
CCCCATAG: -0.241
CATTATGG: 0.0354
GCTGTATA: -0.0842
AGTGGCGC: 0.242
CAGCCTGC: -0.171
AAGGAGGG: -0.147
AGGTCGTC: -0.013
ACGGCCTG: 0.197
ATTGGTGA: -0.246
TCACGCCA: -0.00575
TTAAATAA: 0.0206
TCGCAGAA: 0.0362
CTGTAGTA: -0.0553
ACATGCGA: 0.0473
GCCCCCCA: -0.269
GCCTCCTA: -0.102
GACCGAAA: 0.00571
AGCATATA: -0.133
AGGCATTA: -0.262
GGACATGA: 0.0694
ACGACGGG: 0.183
ACTCGTGC: 0.0436
CCACAGGC: -0.214
CGGGGTCC: 0.181

Block 2
Target: Sal-like protein 4, full length isoform A (SALL4, Homo sapiens, UniProt Q9UJQ4, residues 1-1053)
Chain of UniProt Q9UJQ4 (whole entry, looked up): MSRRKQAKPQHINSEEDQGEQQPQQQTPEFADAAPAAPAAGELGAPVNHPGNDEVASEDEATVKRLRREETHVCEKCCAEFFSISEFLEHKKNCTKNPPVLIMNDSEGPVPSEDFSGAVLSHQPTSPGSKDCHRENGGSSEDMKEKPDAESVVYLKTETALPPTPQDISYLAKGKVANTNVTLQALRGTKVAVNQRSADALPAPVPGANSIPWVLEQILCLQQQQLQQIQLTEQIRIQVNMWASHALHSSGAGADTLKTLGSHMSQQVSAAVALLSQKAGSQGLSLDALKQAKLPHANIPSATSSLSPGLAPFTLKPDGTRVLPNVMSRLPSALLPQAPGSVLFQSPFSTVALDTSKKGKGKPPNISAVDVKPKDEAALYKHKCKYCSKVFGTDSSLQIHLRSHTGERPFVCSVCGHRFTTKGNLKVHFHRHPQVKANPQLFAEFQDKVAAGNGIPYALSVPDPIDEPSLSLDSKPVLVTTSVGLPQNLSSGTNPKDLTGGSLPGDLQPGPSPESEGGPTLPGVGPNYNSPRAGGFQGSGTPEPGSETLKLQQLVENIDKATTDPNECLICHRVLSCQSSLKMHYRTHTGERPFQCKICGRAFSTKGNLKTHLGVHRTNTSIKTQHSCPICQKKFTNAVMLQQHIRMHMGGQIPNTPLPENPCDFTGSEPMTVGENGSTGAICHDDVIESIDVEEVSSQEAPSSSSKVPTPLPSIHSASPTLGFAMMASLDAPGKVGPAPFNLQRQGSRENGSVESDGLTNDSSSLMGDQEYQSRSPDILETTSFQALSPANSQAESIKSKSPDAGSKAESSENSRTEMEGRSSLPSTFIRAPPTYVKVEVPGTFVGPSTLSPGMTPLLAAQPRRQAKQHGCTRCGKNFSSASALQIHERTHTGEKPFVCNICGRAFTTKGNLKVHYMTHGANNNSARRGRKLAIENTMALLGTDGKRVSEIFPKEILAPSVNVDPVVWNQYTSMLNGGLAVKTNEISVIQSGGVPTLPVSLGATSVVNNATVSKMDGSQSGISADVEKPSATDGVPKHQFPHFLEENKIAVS
Method: universal PBM
Molecule type: double-stranded DNA, one strand shown
Sample: in vitro
Tested at: 600 nM
Setting: 8-mer, flanks averaged, mean of replicates
Direction: higher = stronger binding
Measurement: E-score
GAATATCA: 0.287
AACCAATA: 0.25
AACTGACT: -0.0675
AGTGGCGA: -0.0302
CAAGGATG: 0.0397
CGCGAGTC: -0.249
GATACTGA: 0.0946
AAGCTAAG: -0.134
CCACATGC: 0.0249
CAAGGGGC: -0.284
TTAGAGAA: 0.0937
CCCTATCC: -0.305
CCAGAATC: -0.141
CCTTTAGA: 0.0734
TGGAACCA: -0.082
GAATGTTA: 0.149
CCCAACTC: -0.0514
GCTCCACC: -0.295
CAGAGTGA: -0.0357
GGACTCAC: -0.208
AAGCGACC: -0.19

Block 3
Target: RING finger protein unkempt homolog, zinc fingers 1-6, SBP tag (UNK, Homo sapiens, UniProt Q9C0B0, residues 30-357)
Chain of UniProt Q9C0B0 (30-357, looked up): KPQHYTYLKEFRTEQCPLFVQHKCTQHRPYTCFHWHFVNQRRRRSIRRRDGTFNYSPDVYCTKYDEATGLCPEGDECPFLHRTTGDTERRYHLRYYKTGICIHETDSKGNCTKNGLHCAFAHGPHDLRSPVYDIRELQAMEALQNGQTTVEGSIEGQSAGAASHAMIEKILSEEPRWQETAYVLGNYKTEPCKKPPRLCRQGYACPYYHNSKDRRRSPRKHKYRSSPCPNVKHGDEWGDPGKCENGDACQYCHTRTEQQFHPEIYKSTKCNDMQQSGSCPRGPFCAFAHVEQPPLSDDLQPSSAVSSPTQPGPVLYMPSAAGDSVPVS
Method: RNA Bind-n-Seq
Molecule type: RNA
Sample: in vitro
Tested at: 100 nM
Setting: RNA with constant flanks, vertebrate orthologous sites, ends assumed
Baseline: input RNA pool
Direction: higher = stronger binding
Measurement: bound/input enrichment
Shared flanks, not repeated: GGGAGUUCUACAGUCCGACGAUC … CAACAGAGGAUUGAGCAUCA
GUUUUUUUAAUUUAUUUUUCUUUCCUUUUCUUUUUCGGGGGUAAAGUUUGCUCUACCAAAUAGUGAUCGUAACAAACUGAUCUGUUAUGGAUGUUGCUAUAGUGACAUGCAAUUAUAUAU: 2.55 ratio
AACAUAUGUAGAAAAACCAGUUUCACUGAACCCAUUGUCAAGCUUUCUCCUAAAAUUUUAUUUGGACUUCUUUUGUUUUAUACAAGUUUGCUGUGUUUGUCAUUAUUAGUCCACAAUUAA: 0.491 ratio
GAAUACUCCAAAUCCUAAAUUACACUGAGAUCUAGACCUUCAUUUGGCAGGGUCAGGCCAUUGGAUGGUGUUGCUGUAUUGUCUUGUCGUGUUUUUAAAAUCUGUGCACUUUGUCCAAAG: 0.583 ratio
GUUGGGUCAUGACCCCUACAGGUUAGGCCAUGAUGCUUACAGGUUAGGACAAGACCCUUAUAGAUUAGGCCAUGAUCCCUACAGACUAACUCCGGAUCCCUAUAGGGUAUCACCUAGGCC: 0.301 ratio
CAAUUCCAUGGUUGAAGGUUCAGAACUCAAAAAGGUCCGCUCGAACUCUAGAAUUUACCAUAGAUAUUUUUUACUGGAUGCUGACAUGCAGAGCUUGAGGUGGGAGCCAUCGAAGAAGGA: 3.09 ratio
GCUUUUAACAAUUAUGUCUGUAAAUGUAUAUUGAGAGAACUGAAGUAUUUAUAAACAGAGCGAUUUAUUUAAGGAAAAGGUCAUUCCUCUUUCAUAUGGUGAUCUGUAUUAAUUCCAUUU: 0.295 ratio
UACCAGCUUAGCGAACACAGUUUUGGAGAAAUAAUAAUAAUAUUUAAAAAAUAAAGAGCCUGAUUGGUAUCUUUUUGUCUAACUGUUUUUCAAAGAGAAAGUUUAAAAGAAAAAAAAAGA: 0.517 ratio
UGUUUCUAAUUUCAAGCAAAAAAAAAAAAUCUUAUUGUACUUGAAUGUGUCCUGUUUUGUUAGCACACCUAGACUUGCUGUAACUGUACUCAUGUCCCAGUAUGUACGUUCUUUCUAUGA: 0.488 ratio
AAAUGCGAUGGUCGAAGGCUCUGAGCUCAAAAAGAUUCGAUCCAACUCCAGGGUGUAUCACCGAUACUUUCUUCUAGACGCAGAUAUGCAGUCUCUACGCUGGGAACCUUCAAAAAAGGA: 0.188 ratio
GCCGUCUGAUUGGAUAAAGACCGUCCCAAGUUACAACCAAACAAACAGUUCCAUGGACUUUAGAAAUUAUAUGAUGCGAGAUGAAAAUCUGGAACCACUGCCCAAAAACUGGGAAAUGGC: 0.722 ratio
GCAAUGAAAAACCAGUCCUUCUCCCAGCCCCCCUUUCACUAGGAGAUACAAACACUACCGUAGAAGAGCAAUUUAACUCAAUAAAUUUAUCUUUUCAGGAUGAUCCAGACUCCAGUACCA: 0.776 ratio

Block 4
Target: Interferon regulatory factor 7, full length, phosphomimetic (IRF7, Homo sapiens, UniProt Q92985, residues 1-503, S471D/S472D/S475D/S476D/S477D/S483D/S484D/S487D)
Method: protein-binding microarray
Molecule type: double-stranded DNA, one strand shown
Sample: in vitro
Tested at: 2200 nM top
Setting: 60-bp whole probe
Added: salmon DNA 0.4 mg/ml
Baseline: random background probes
Direction: higher = stronger binding
Measurement: fitted relative affinity
Shared flanks, not repeated: GCCTAGCAC … GTCTTGATTCGCTTGACGCTGCTG
Residues (chain): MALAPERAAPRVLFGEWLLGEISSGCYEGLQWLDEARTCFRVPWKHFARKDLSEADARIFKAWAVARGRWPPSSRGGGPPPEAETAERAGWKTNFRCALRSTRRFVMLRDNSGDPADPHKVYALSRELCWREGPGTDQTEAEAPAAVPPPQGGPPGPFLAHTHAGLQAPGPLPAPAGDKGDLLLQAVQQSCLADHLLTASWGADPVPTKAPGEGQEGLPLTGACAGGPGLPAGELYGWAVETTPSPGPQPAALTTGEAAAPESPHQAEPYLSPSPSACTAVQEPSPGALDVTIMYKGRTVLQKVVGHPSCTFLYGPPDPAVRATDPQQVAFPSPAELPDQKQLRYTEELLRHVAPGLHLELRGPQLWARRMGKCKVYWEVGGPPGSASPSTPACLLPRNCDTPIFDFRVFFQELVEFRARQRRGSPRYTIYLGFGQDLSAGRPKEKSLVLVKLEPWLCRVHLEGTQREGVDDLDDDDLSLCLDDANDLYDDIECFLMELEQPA
TCAGTTGTCCAGGCTGGTACTGTGCTA: 0.488 z-score
GACGGACTGCTATTCCTGACGTGCTAG: 0.435 z-score
TTAGGTATCGGGTTTCGGTTAGTGCTA: 4.3 z-score
TTAGATCTCAGTATCGGTTAGTGCTAG: 0.512 z-score
GCCGATTTCAGACTGGAGACGTGCTAG: 0.958 z-score
TTAGGTATCGACTATCGCTTAGTGCTA: 0.388 z-score
GACGATCTCGGACTGGAGACGTGCTAG: -0.116 z-score
TTAGAACTAGGGTATCGATTAGTGCTA: -0.812 z-score
TTAGGATTGGACTATCGGTTAGTGCTA: -0.0278 z-score
GAAGATTTCAGTATCGAGACGTGCTAG: 0.218 z-score
GGCGGACTGGACACTGGGGACGTGCTA: -1.65 z-score
GACGGTATCGACTATAGGGACGTGCTA: -0.447 z-score
CACTCTCAGAATCTCTCATGGTGCTAG: 1.03 z-score
TCAAGTTTCTCCTTTCGACTGTGCTAG: 3.84 z-score
GATGGTCTCCTACTGCTGACGTGCTAG: 0.625 z-score
GACGAACTGATTATCGAGACGTGCTAG: 0.0256 z-score
GACGGTATCGACACTGGTGACGTGCTA: -0.201 z-score
TTAGATTCCTGTTTCGATTAGTGCTAG: 4.87 z-score
TCATTTTTGTAATCGAAAACTGTGCTA: 1.64 z-score
TTAGAACTGACTATCGATTAGTGCTAG: -0.146 z-score
GACGGGTTCGACACTGGGGACGTGCTA: -0.21 z-score
TTAGAACTGAGTATCGATTTGTGCTAG: 0.4 z-score
CGGGCTTTCCCGTCCAGGGCGTGCTAG: -0.72 z-score
TTATATTTCAGTTCCGATTAGTGCTAG: 2.29 z-score

Block 5
Target: RNA binding protein fox-1 homolog 2, RRM domain, GST-SBP tag (RBFOX2, Homo sapiens, UniProt O43251-10, residues 100-194)
Method: RNA Bind-n-Seq
Molecule type: RNA
Sample: in vitro
Tested at: 365 nM
Setting: natural RNA segment, single round, ends assumed
Baseline: no-protein control
Direction: higher = stronger binding
Measurement: RBNS enrichment (R)
Shared flanks, not repeated: GGGAGUUCUACAGUCCGACGAUC … UGGAAUUCUCGGGUGCCAA
Residues (chain): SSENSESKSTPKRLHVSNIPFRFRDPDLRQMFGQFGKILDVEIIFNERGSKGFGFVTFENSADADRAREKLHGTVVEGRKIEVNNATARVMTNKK
CAUAUUUUAAAUGUUUGAAAAAGAGUCACUAACAAAGUGGAUUUUAUUUUAAAGCAGAUUUCUUCAGAAGCUAUCAUGGUCCCAGGGACUAGGUAGAAUUUUUAAGUCUA: 0.36
GUGCUUGUAAGUGGUUAAAUAAUUUGUAAGCAUUUUUGAUCUGUCUGUCUGUCUCUACAUGGAUGGACUGAAUAAGAAUGUAAAUAAUAUUUAUUGCAAAGCAAGCCUGG: 0.298
GUCUUAGAGGAAGAGAUUCCACUUGCACGGCAACAGAGCCUUACGUUAAAUUUUCAGUCCAGUUAUGAACAGCAAGUGUUGAACUCUUUCUGCUUGUUUUGAUUCAAAGU: 0.573
GGAAGGUGUCGUUUUUACACUGCUAAUGACGAGAGUGGCUCUUUUUAGCUAGGCGAGUACAGACGGGGCCUGGGAGGGGGCAGAGAUGUUCCCCAGGCCCUGCCUGUGGU: 0.312
CUUCGGCCAGUCUUAAACGGGUGUCAGCAAGAAGAAAAAUUAACAAAAGACAGAAGGCCUGACUUUGGGGGGUUAGGGCAAGGGGUUCCUCUGGAUUGCAGACCACAUCG: 1.23
AGGCUUAAUGAGCAUAGGUAGCUUGUCCAAGGUCUCAUGACCAGUCAAGGGCAAGCUGGAGUUAAUAAUCUAUAUUUAUUUGACUCAGCACUGUUUUCAUCACAACUUGU: 0.23
UCACUUAGCAACAAAGUACCUUCUAAUUUCCAAUAGUCCGUGAAAGUUGGGGCUGAAGUACCUAAGUGUGAAUGUCUCUCCCGUUAAACUGAGUGUAGAAAUCUGAAUUU: 0.393
AAUGUAAAAGUGUCAUACAAUUUAGAAGAUUUUUGAAGAUGGUAAACUUAGAAGAAUUCUAUGUUCUGAAAUGCACACUUUUAGAAUGUUUUUCUUUGAAAACAGGCUAA: 0.655
CCAUGAGAUUUUUACAUGUGCAUAAGUAUUUAGCCAAUACACAUUUUGCUGACUUCUUUAACCAUUUAUAUUGUUUAAAUUAGUAAUAUCCAAUGCAGUGCACACUUUUU: 0.409
UAAAUUUAUAAAUAUAUUCAGGAGUUGGAAUGUUGUAGUUACCUACUGAGUAGGCGGCGAUUUUUGUAUGUUAUGAACAUGCAGUUCAUUAUUUUGUGGUUCUAUUUUAC: 0.693
GAAGCAAUGUUAAAUCAUUCAGGUUUUAUUUUCUGCCCUGAAGCAGAAAUUUAAAAAAUGAUAUUGGGACCUGGAAGGUUUAAUAUGGUUCACAGUGCCUGAAUUACACC: 0.463
UCAGAUGGCUUUCCAGAUGACCAGGACGAGUGGGAUAUUUUGCCCCCAACUUGGCUCGGCAUGUGAAUUCUUAGCUCUGCAAGGUGUUUAUGCCUUUGCGGGUUUCUUGA: 1.8
